Assay results gathered from unrelated publications.
Every numbered part comes from another study and shows a few of its results, in no order. ± gives the spread as reported.

Study 1
Compound: O=C1NC2(CC2)COc2ncc(F)cc2[C@H]2COCCN2c2ccn3ncc1c3n2
Matrix: serum
Route: oral
Time: 4 weeks daily
Endpoint: alkaline phosphatase activity
host = Sprague-Dawley rat, male; dose = 2.5 mg/kg/day; setting = end of recovery period; result = 111 ± 39.5 U/L
host = Sprague-Dawley rat, male; dose = 20 mg/kg/day; setting = end of treatment; result = 140 ± 20.8 U/L
host = Sprague-Dawley rat, female; dose = 2.5 mg/kg/day; setting = end of treatment; result = 70.8 ± 21 U/L

Study 2
SMILES: CC(C)(C)C(=O)OCOP(=O)(OCOC(=O)C(C)(C)C)C1CCCN(O)C1=O (stereo not drawn)
Endpoint: CC50
cell line = ACHN; result = > 100 µM
cell line = TK-10; result = > 100 µM
cell line = A549; result = > 100 µM

Single results of other studies
Substance = ORF34 G165A (Kaposi's sarcoma-associated herpesvirus); target or system = ORF24 1-400; assay = pull-down; scale = baseline: wild-type ORF34, higher = more binding; endpoint = relative binding; result = 0.68
Substance = CC(C)CC(C(=O)N1CC2(CC1C#N)C(=O)Nc1ccccc12)N(C)C(=O)c1cc2c(F)cc(F)c(F)c2[nH]1 (stereo not drawn); target or system = Human coronavirus 229E; assay = cytopathic effect; test system = MRC5; conditions = 1.492 µM; endpoint = inhibition; result = 93.4%
Substance = ORF34 C256A (Kaposi's sarcoma-associated herpesvirus); target or system = ORF24 1-400; assay = pull-down; test system = 293T; scale = baseline: wild-type ORF34, higher = more prey pulled down; endpoint = relative binding; result = 0.11

For quick reference, copied from above (single results of other studies):
Substance = ORF34 C256A (Kaposi's sarcoma-associated herpesvirus); target or system = ORF24 1-400; assay = pull-down; test system = 293T; scale = baseline: wild-type ORF34, higher = more prey pulled down; endpoint = relative binding; result = 0.11
